# Published values gathered from unrelated publications.
# Compare with care: the assays were run in different laboratories. ± marks the error that the study gave.
# MAL12: Alpha-glucosidase MAL12 (MAL12, Saccharomyces cerevisiae S288c, UniProt P53341)
# Chain of UniProt P53341 (whole entry, looked up): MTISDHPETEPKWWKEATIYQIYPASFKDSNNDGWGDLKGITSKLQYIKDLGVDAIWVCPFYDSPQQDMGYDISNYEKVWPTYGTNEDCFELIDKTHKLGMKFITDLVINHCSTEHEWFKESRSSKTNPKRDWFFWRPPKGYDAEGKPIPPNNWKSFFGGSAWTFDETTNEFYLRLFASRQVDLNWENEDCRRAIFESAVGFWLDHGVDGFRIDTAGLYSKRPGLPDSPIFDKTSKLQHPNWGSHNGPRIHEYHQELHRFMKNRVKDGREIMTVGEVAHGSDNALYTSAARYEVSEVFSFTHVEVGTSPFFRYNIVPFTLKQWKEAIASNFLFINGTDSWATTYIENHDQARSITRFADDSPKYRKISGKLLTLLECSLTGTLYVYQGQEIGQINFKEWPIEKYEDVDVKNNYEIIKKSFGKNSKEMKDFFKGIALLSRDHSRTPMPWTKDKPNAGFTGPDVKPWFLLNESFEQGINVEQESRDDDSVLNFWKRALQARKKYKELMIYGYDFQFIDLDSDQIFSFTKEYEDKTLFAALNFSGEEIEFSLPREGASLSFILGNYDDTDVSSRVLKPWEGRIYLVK
# PTGS1: Prostaglandin G/H synthase 1 (PTGS1, Ovis aries, UniProt P05979)
# Chain of UniProt P05979 (whole entry, looked up): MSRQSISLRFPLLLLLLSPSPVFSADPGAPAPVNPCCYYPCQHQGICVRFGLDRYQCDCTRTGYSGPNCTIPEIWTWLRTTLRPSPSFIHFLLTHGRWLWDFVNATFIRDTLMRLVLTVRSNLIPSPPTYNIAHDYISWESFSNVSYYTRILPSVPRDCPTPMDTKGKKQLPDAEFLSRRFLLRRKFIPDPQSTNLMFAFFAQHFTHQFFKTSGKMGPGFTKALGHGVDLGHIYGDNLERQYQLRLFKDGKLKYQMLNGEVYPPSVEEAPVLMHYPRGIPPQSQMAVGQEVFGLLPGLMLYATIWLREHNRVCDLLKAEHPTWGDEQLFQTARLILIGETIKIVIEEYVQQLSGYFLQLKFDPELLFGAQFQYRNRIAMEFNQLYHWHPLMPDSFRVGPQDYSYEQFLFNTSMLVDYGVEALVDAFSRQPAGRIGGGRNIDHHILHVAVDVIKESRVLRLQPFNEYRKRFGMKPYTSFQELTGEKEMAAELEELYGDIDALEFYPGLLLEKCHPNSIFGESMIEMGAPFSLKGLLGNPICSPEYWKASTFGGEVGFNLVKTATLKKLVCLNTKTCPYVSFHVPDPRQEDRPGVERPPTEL
# Adhesin FmlH lectin domain: Adhesin FmlH, lectin domain (Escherichia coli, UniProt Q1RBS0)
# USP51: Ubiquitin carboxyl-terminal hydrolase 51 (USP51, Homo sapiens, UniProt Q70EK9)
# Chain of UniProt Q70EK9 (whole entry, looked up): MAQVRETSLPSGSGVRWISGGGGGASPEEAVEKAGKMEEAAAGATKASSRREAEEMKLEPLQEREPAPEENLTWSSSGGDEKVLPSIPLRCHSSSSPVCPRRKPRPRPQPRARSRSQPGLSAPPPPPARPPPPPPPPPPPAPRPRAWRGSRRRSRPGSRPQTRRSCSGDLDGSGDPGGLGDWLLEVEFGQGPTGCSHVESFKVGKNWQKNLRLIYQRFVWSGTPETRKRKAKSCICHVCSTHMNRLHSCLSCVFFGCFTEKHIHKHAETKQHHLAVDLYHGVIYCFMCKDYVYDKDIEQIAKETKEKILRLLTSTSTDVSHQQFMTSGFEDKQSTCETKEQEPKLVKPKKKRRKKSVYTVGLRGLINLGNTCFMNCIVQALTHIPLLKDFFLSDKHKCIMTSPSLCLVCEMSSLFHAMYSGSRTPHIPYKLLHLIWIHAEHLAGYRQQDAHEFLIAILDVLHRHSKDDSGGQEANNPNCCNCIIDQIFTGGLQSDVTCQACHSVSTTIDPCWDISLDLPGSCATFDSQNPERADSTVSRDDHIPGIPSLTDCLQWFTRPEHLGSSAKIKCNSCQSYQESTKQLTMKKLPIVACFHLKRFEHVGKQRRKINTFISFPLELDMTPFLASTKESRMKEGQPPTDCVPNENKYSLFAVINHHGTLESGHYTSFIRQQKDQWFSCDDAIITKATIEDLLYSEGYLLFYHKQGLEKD
# CAPN1: Calpain-1 catalytic subunit (CAPN1, Homo sapiens, UniProt P07384)
# Chain of UniProt P07384 (whole entry, looked up): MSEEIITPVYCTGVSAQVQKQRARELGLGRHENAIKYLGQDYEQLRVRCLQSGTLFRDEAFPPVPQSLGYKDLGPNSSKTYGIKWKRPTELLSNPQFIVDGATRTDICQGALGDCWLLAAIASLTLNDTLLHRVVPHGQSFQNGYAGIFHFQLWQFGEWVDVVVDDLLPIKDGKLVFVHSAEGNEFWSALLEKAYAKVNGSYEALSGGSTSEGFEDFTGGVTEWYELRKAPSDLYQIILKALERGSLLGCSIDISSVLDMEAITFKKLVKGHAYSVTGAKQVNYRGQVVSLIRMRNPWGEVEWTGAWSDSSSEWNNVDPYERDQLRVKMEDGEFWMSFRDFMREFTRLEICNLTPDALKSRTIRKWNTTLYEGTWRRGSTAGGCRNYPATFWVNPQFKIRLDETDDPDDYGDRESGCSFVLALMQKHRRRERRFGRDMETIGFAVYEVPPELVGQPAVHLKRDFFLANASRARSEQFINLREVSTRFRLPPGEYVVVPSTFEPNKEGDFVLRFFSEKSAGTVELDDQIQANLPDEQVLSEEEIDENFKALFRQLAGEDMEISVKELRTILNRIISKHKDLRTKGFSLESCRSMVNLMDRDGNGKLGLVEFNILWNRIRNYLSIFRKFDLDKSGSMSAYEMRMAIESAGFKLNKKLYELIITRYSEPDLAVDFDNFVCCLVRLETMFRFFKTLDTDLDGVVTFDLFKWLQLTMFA
# Chain of UniProt P08887 (whole entry, looked up): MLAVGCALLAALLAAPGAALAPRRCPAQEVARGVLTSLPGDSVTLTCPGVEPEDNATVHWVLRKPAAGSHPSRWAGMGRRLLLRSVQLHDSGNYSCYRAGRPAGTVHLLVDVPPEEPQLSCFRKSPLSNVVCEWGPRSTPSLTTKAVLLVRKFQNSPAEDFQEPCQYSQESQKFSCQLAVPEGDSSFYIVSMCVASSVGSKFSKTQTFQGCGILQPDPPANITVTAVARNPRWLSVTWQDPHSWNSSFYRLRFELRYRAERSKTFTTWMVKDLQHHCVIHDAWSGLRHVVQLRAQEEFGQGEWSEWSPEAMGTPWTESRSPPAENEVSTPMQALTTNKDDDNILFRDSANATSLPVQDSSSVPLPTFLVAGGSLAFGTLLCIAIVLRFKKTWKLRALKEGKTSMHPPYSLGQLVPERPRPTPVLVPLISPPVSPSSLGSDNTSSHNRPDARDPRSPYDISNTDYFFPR
# Chain of UniProt P28482 (whole entry, looked up): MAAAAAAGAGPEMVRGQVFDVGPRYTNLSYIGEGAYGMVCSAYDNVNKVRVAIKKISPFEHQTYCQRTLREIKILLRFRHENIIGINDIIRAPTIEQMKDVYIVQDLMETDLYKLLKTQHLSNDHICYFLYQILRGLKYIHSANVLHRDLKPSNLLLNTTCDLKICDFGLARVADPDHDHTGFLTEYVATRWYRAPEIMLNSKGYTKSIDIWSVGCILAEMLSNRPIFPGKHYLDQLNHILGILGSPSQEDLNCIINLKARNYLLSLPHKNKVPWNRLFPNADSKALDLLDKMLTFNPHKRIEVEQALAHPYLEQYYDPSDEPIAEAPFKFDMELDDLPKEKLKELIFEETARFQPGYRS
# Chain of UniProt Q15059 (whole entry, looked up): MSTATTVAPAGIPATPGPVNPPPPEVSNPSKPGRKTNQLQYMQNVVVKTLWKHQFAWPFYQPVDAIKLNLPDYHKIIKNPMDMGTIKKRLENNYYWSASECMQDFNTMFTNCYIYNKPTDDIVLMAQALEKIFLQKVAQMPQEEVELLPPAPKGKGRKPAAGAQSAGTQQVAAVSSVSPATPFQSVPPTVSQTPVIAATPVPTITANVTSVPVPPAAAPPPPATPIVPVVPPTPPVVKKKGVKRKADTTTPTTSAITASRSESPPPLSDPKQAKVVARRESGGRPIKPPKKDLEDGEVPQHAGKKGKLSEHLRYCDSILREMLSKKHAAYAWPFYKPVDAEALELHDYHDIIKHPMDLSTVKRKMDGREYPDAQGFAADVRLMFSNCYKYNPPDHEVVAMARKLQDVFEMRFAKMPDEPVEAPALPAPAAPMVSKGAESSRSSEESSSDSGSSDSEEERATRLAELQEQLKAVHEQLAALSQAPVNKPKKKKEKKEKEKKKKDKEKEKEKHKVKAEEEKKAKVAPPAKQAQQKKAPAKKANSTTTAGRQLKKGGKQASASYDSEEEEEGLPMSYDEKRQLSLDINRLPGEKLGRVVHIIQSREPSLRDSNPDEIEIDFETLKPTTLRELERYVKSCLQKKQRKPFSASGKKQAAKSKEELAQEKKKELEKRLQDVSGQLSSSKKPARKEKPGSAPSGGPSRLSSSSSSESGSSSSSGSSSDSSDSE
# Chain of UniProt Q15910 (whole entry, looked up): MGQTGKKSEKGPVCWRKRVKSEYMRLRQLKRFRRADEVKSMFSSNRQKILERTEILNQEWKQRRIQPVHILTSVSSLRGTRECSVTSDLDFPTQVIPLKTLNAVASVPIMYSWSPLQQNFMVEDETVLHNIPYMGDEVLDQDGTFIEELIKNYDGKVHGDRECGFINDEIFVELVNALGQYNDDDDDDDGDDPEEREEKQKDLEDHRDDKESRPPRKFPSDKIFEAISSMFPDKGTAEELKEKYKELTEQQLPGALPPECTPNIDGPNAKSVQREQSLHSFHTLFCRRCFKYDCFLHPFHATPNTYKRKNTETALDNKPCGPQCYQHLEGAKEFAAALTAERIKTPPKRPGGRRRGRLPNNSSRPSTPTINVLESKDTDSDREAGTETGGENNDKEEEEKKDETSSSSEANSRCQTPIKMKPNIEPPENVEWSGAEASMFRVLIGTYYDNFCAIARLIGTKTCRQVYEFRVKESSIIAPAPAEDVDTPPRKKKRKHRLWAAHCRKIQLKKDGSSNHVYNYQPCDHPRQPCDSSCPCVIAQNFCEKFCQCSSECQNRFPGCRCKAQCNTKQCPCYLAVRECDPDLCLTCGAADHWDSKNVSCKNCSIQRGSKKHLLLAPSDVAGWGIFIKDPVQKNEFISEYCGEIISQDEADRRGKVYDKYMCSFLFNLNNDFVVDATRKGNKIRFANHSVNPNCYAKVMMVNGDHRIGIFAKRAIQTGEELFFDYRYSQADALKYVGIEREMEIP
Structure (SMILES),tested on,test,system,setting,how to read,measurement,result
O=C1c2sc(-c3ccc(N4CCC(CO)CC4)nc3F)nc2CCN1c1cccnc1,"ADRA2B (Homo sapiens, UniProt P18089)","ligand displacement, radioligand",,1 µM,,inhibition,-7%
Oc1cc2c(cc1O)C(c1cccc3ccccc13)NCC2 (centres unmarked),MAL12,"enzyme activity, inhibitor",,"100 µM, DMSO solvent, together with: pNPG substrate",,inhibition,56.22 ± 0.56%
CC(C)Cc1ccc(-c2nn(-c3ccc(S(C)(=O)=O)cc3)cc2C=NN=c2[nH]c(-c3ccc(Br)cc3)cs2)cc1,PTGS1,enzyme activity,,10 µM,,inhibition,68.6%
Cc1cc(=O)oc2cc(O[C@@H]3O[C@H](CO)[C@H](O)[C@H](O)[C@H]3O)ccc12,Adhesin FmlH lectin domain,"binding to desialylated mucin, ELISA competition",UPEC UTI89,"10 µM, together with: desialylated bovine submaxillary mucin",,inhibition,19.7 ± 4.2%
Brc1ccccc1-c1nnc(CSc2nnnn2-c2ccccc2)o1,"HRH2 (Homo sapiens, UniProt P25021)","ligand displacement, radioligand",,10 µM,,inhibition,22%
C#CCOC(=O)[C@]1(C)C=C(C(=O)OC(C)(C)C)C(=O)CC1,"MAPK1 (Homo sapiens, UniProt P28482)","kinase activity, inhibitor, Kinase-Glo luminescence",,10 µM,,inhibition,no inhibition
COc1ccc(C(=O)Nc2cc3c(cc2C#N)OCO3)cc1S(=O)(=O)NCc1ccco1,USP51,"enzyme activity, inhibitor",,1 µM,,inhibition,35.1 ± 11.6%
CS(=O)(=O)c1ccc(-n2cc(C=NN=c3[nH]c(-c4ccc(Br)cc4)cs3)c(-c3ccc([N+](=O)[O-])cc3)n2)cc1 (mixture of isomers),PTGS1,enzyme activity,,0.1 µM,,inhibition,7.57%
O=C1c2sc(-c3ccc(N4CCC(F)C4)nc3F)nc2CCN1c1cccnc1 (centres unmarked),"ADRA2C (Homo sapiens, UniProt P18825)","ligand displacement, radioligand",,1 µM,,inhibition,4%
C[Si]1(C[C@H](CN)CC(=O)O)CCCC1,"Interleukin-6 receptor subunit alpha (IL6R, Homo sapiens, UniProt P08887)","binding, radioligand binding",,70 µM,,inhibition,-4%
C=CC(=O)Nc1cccc(-c2cnc3[nH]cc(C(=O)NC(C)(C)C)c3n2)c1,CK2,kinase activity,,0.1 µM,,inhibition,2%
Cc1[nH]nc(-c2ccc(O)cc2O)c1-c1nc2ccccc2s1,USP51,"enzyme activity, inhibitor",,1 µM,,inhibition,36.2 ± 6.3%
Cc1ccc(-c2nn(-c3ccc(S(C)(=O)=O)cc3)cc2C=NN=c2[nH]c(-c3ccc(Br)cc3)cs2)cc1 (mixture of isomers),PTGS1,enzyme activity,,1 µM,,inhibition,31.5%
Cc1cc(C)n(Cc2ccc(O)cc2)n1,MAL12,inhibitor,,25 µM,,inhibition,< 0%
Cc1ccc(CNC(=O)[C@H](CCc2ccccc2)NC(=O)[C@H](CC(=O)NCC(C)(C)C)NC(=O)CCc2cccc(F)c2)cc1,CAPN1,"enzyme activity, inhibitor",,100 µM,,inhibition,22%
COc1ccc(-n2cnc3c2NC(=O)CC3c2cc3c(c(OC)c2OC)OCO3)cc1 (centres unmarked),USP51,"enzyme activity, inhibitor",,1 µM,,inhibition,0%
Cc1ccc(O[C@@H]2O[C@H](CO)[C@H](O)[C@H](O)[C@H]2O)cc1,Adhesin FmlH lectin domain,"binding to desialylated mucin, ELISA competition",UPEC UTI89,"10 µM, together with: desialylated bovine submaxillary mucin",,inhibition,16.5 ± 3.3%
CS(=O)(=O)c1ccc(-n2cc(C=NN=c3[nH]c(-c4ccc([N+](=O)[O-])cc4)cs3)c(-c3ccc([N+](=O)[O-])cc3)n2)cc1,PTGS1,enzyme activity,,100 µM,,inhibition,88.4%
COc1ccc2c(c1)C(CC(=O)NC(C(=O)NC(CCc1ccccc1)C(=O)NCc1ccc(C)cc1)C(C)O)CC2=O (centres unmarked),CAPN1,"enzyme activity, inhibitor",,100 µM,,inhibition,8%
Cc1ncsc1-c1ccc(C(C)NC(=O)C2CC(O)CN2C(=O)C(NC(=O)CCCCCCCCCCN2CCCC(Nc3ncc(Cl)c(Nc4ccccc4S(=O)(=O)C(C)C)n3)C2)C(C)(C)C)cc1 (centres unmarked),22Rv1,"RNA-seq, item: OTUD6B-AS1",,concentration not given,baseline: DMSO,log2 fold change,-1.11
CN(C)C/C=C/C(=O)Nc1ccc2nc(NCCCCCN(C)C)nc(NCCCCCCN(C)C)c2c1,"EZH2 (Homo sapiens, UniProt Q15910)","enzyme activity, inhibitor, radiometric",,50 µM,,inhibition,84%
COc1cc(-c2cn(C)c(=O)c3cnccc23)cc(OC)c1CN(C)C,"Bromodomain-containing protein 3, BD2 (BRD3, Homo sapiens, UniProt Q15059)",,,1 µM,,inhibition,-2.07%
Cn1cc(C(=O)N[C@@H](CCNC(=O)c2ccc([N+](=O)[O-])o2)c2nc3ccccc3[nH]2)nn1,"STING1 (Homo sapiens, UniProt Q86WV6, H232R)","reporter gene, inhibitor, Lucia reporter",THP1-Dual,"concentration not given, wild-type STING, together with: diABZI",,inhibition,inactive
COc1cc(-c2nc3c4ccccc4ncn3n2)cc(OC)c1OC,USP51,"enzyme activity, inhibitor",,1 µM,,inhibition,10.5 ± 2.8%
C[Si](C)(C)C[C@H](CN)CC(=O)O,"glycine receptor, rat","binding, radioligand binding",,250 µM,,inhibition,-14%
COc1ccc(C(=O)/C=C/c2ccccc2-c2c[nH]c3ccc(C#N)cc23)c(O)c1,"ATM (Homo sapiens, UniProt Q13315)","enzyme activity, inhibitor",,20 µM,,inhibition,14%
OC[C@H]1O[C@H](Oc2cccc(-c3ccccc3)c2)[C@H](O)[C@@H](O)[C@H]1O,Adhesin FmlH lectin domain,"binding to desialylated mucin, ELISA competition",UPEC UTI89,100 µM,,inhibition,45.6 ± 2.5%
C[C@H](NC(=O)[C@H](CC(=O)NCC(C)(C)C)NC(=O)C(=O)c1c[nH]c2ccccc12)C(=O)NCc1ccc(F)cc1F,CAPN1,"enzyme activity, inhibitor",,100 µM,,inhibition,-40%
O=C(Nc1ccc(C(F)F)cc1)[C@H](CC1CCCCC1)Nc1nn2c(=O)ccnc2s1,"Tyrosine-protein phosphatase non-receptor type 4 (Homo sapiens, UniProt P29074)","enzyme activity, inhibitor",,10 µM,,inhibition,-6%
N#Cc1ccccc1O[C@@H]1O[C@H](CO)[C@H](O)[C@H](O)[C@H]1O,Adhesin FmlH lectin domain,"binding to desialylated bovine submaxillary mucin, inhibitor, ELISA competition",UPEC UTI89,1 µM,,inhibition,12.1 ± 6.3%
CCOC(=O)CCCCC1NCCc2ccc(O)c(O)c21 (centres unmarked),MAL12,"enzyme activity, inhibitor",,"100 µM, DMSO solvent, together with: pNPG substrate",,inhibition,20.2 ± 3.45%
CC1Cc2ccccc2N1C(=O)CN1CCN(c2ccccc2)CC1 (centres unmarked),"HTR5A (Homo sapiens, UniProt P47898)",radioligand binding,,"concentration not given, together with: [3H]LSD",,inhibition,12.7%
CCn1cc(C(=O)O)c(=O)c2c(N)c(F)c(NC3CCCCC3)cc21,"BCKDK (Homo sapiens, UniProt O14874)",kinase activity,,"0.1 µM, together with: ATP at Km",,inhibition,-33.3%
OC[C@H]1O[C@H](Oc2ccc(-c3ccccc3)cc2)[C@H](O)[C@@H](O)[C@H]1O,Adhesin FmlH lectin domain,"binding to desialylated mucin, ELISA competition",UPEC UTI89,100 µM,,inhibition,86.5 ± 1.7%
CN1CCN(Cc2ccc(-c3ccc(CO[C@H]4CCC[C@@H]4NC(=O)c4cc(-c5cnn(C)c5)cnc4N)cc3)cc2)CC1,"PEAK1 (Homo sapiens, UniProt Q9H792)","enzyme activity, inhibitor",,0.1 µM,,inhibition,6%
O=C(NS(=O)(=O)c1cccs1)c1cc2ccccc2n1Cc1ccc(Br)c2ccccc12,"XDH (Bos taurus, UniProt P80457)","enzyme activity, inhibitor, absorbance",,10 µM,,inhibition,23.6%
COCC(=O)N1CCc2cc(-c3csc(NC(=O)c4cc(OC)cc(OC)c4)n3)ccc21,"PTGER4 (Homo sapiens, UniProt P35408)","ligand displacement, radioligand",,10 µM,,inhibition,2%
CC(C)OCCOCc1ccc(OCC(O)CN(N=O)C(C)C)cc1 (centres unmarked),Escherichia coli,Ames test,WP2 uvrA,"5 µg/plate, without metabolic activation",baseline: solvent control,revertant fold increase,0.6 fold
CCOc1ccc(S(=O)(=O)Nc2ccc3c(c2)C(=O)Nc2ccccc2O3)cc1,USP51,"enzyme activity, inhibitor",,1 µM,,inhibition,57.6 ± 15.3%
OC[C@H]1O[C@@H](Oc2cccc3cccnc23)[C@H](O)[C@@H](O)[C@H]1O,Adhesin FmlH lectin domain,"binding to desialylated mucin, ELISA competition",UPEC UTI89,100 µM,,inhibition,95.1 ± 1.1%
COC1CN([C@H]2CC[C@H]([C@@]3(C)Oc4c(Cl)cc(C(=O)NCc5c(SC)cc(C)[nH]c5=O)c(C)c4O3)CC2)C1,,"RNA-seq, item: MAP7","human, whole blood","dose not given, 24 h",baseline: pretreatment baseline,log2 fold change,1.43

# Repeated from above:
Structure (SMILES),tested on,test,system,setting,how to read,measurement,result
CS(=O)(=O)c1ccc(-n2cc(C=NN=c3[nH]c(-c4ccc([N+](=O)[O-])cc4)cs3)c(-c3ccc([N+](=O)[O-])cc3)n2)cc1,PTGS1,enzyme activity,,100 µM,,inhibition,88.4%
CCn1cc(C(=O)O)c(=O)c2c(N)c(F)c(NC3CCCCC3)cc21,"BCKDK (Homo sapiens, UniProt O14874)",kinase activity,,"0.1 µM, together with: ATP at Km",,inhibition,-33.3%
Oc1cc2c(cc1O)C(c1cccc3ccccc13)NCC2 (centres unmarked),MAL12,"enzyme activity, inhibitor",,"100 µM, DMSO solvent, together with: pNPG substrate",,inhibition,56.22 ± 0.56%
